Experimental data collected from several papers.
Each line is one published result; not all experiments were run side by side. Several values in a cell are separate wells, animals, samples, runs or records.

| Structure (SMILES) | matrix | tested at | pH | temperature | notes | absorption maximum |
| --- | --- | --- | --- | --- | --- | --- |
| COc1ccc2cc(-c3ccc(-c4ccc(C)cn4)nc3)oc2c1 | acetonitrile |  |  |  | zinc-free ligand | 347 nm |
| COCCOCCOc1ccc([P+](Cc2ccc(C3=C4C(C)=CC(C)=[N+]4[B-](F)(F)n4c(C)cc(C)c43)cc2)(c2ccc(OCCOCCOC)cc2)c2ccc(OCCOCCOC)cc2)cc1 | PBS | 10 µM | pH 7.4 | 298 K |  | 497 nm |
| CCOC(=O)c1[nH]c(C)c(/C=C/C2=[N+]3C(=C(c4cc(OC)cc(OC)c4)c4c(C)c(I)c(/C=C/c5c(C)[nH]c(C(=O)OCC)c5C)n4[B-]3(F)F)C(C)=C2I)c1C | dichloromethane |  |  |  |  | 678 nm |
| CCCCN1C(=O)c2cccc3c(NCCN4CCOCC4)ccc(c23)C1=O | aqueous medium |  | pH 6 |  |  | 441 nm |
| COc1cc(/C=C2\SC(=S)NC2=O)cc(OC)c1O | PBS |  |  |  | phenolic form, without FAST | 409 nm |
| COc1cc(OC)cc(C2=C3C(C)=C(I)C(C)=[N+]3[B-](F)(F)n3c(C)c(I)c(C)c32)c1 | dichloromethane |  |  |  |  | 535 nm |
| COc1ccc(/C=C/c2ccc(-c3ccc(C)cn3)nc2)cc1 | acetonitrile |  |  |  | zinc-free ligand | 345 nm |
| CC1=CC(C)=[N+]2C1=C(c1ccc(C[P+](C3CCCCC3)(C3CCCCC3)C3CCCCC3)cc1)c1c(C)cc(C)n1[B-]2(F)F | PBS | 10 µM | pH 7.4 | 298 K |  | 497 nm |
| CCCCN1C(=O)c2cccc3c(NCCCCN4CCOCC4)ccc(c23)C1=O | aqueous medium |  | pH 6 |  |  | 449 nm |
| COc1cc(/C=C2\SC(=S)NC2=O)cc(OC)c1OCc1ccccc1[N+](=O)[O-] | PBS |  |  |  | free ligand | 445 nm |
| CCc1ccc(C2=C3C(C)=CC(C)=[N+]3[B-](F)(F)n3c(C)cc(C)c32)cc1 | PBS | 10 µM | pH 7.4 | 298 K |  | 488 nm and 538 nm |
| NCCC(=O)N1Cc2ccccc2-c2c(nnn2-c2nc(N)c3ncn(C4OC(CO)C(O)C4O)c3n2)-c2ccccc21 (mixture of isomers) | methanol |  |  |  |  | 263 nm |
| CC1=[N+]2C(=C(CCl)c3ccc(C)n3[B-]2(F)F)C=C1 | PBS/DMSO 90:10 v/v | about 1 µM | pH 8.0 |  |  | 528 nm |
| COc1cc(OC)cc(C2=C3C(C)=C(I)C(/C=C/c4c[nH]c5ccccc45)=[N+]3[B-](F)(F)n3c(/C=C/c4c[nH]c5ccccc45)c(I)c(C)c32)c1 | DMSO |  |  |  |  | 727 nm |
| CCCCN1C(=O)c2cccc3c(NCCCCCCCCCCN4CCOCC4)ccc(c23)C1=O | aqueous medium |  | pH 6 |  |  | 452 nm |
| CC1=CC(C)=[N+]2C1=C(CCCC(=O)NCCCC[C@H](NC(=O)N[C@@H](CCC(=O)O)C(=O)O)C(=O)O)c1c(C)cc(C)n1[B-]2(F)F | acetonitrile/water |  |  |  |  | 495 nm |

| Structure (SMILES) | matrix | tested at | pH | temperature | notes | absorption maximum |
| --- | --- | --- | --- | --- | --- | --- |
| COC(=O)c1ccccc1-c1c2ccc(=O)cc-2oc2c1ccc1cccc(N)c12 | aqueous NaOH 10% DMSO |  | pH 12.1 |  | conjugate base | 509 nm and 549 nm |
| COCCOCCOCCOc1ccc(/C=C/c2c(I)c(C)c3n2[B-](F)(F)[N+]2=C(C)C(I)=C(C)C2=C3c2cc(OC)cc(OC)c2)cc1 | DMSO |  |  |  |  | 601 nm |
| COC(=O)c1cc(=O)n(C)c2c(-c3ccc(OC)cc3)csc12 | dichloromethane | 10 µM |  |  |  | 235 nm |
| CC1=CC(C)=[N+]2C1=C(CCCC(=O)NCCCCCC(=O)NCCCCCC(=O)NCCCC[C@H](NC(=O)N[C@@H](CCC(=O)O)C(=O)O)C(=O)O)c1c(C)cc(C)n1[B-]2(F)F | acetonitrile/water |  |  |  |  | 496 nm |
| COC(=O)c1ccccc1-c1c2ccc(=[N+](C)C)cc-2oc2c1ccc1cccc(N)c12 | phosphate buffer | 10 to 15 µM | pH 7.4 |  | 10% DMSO | 598 nm |
| CCn1cc(/C=C/c2ccc3ccccc3[n+]2CC)c2ccccc21 | DMSO | 10 µM |  |  |  | 488 nm |
| COc1cc(OC)cc(C2=C3C(C)=C(I)C(/C=C/c4c[nH]c5ccc([N+](=O)[O-])cc45)=[N+]3[B-](F)(F)n3c(/C=C/c4c[nH]c5ccc([N+](=O)[O-])cc45)c(I)c(C)c32)c1 | dichloromethane |  |  |  |  | 690 nm |
| Cc1ccc(-c2ccc(-c3cc4sccc4o3)cn2)nc1 | aqueous HEPES buffer |  | pH 7.4 |  | zinc(II) complex | 372 nm |
| COc1cc(OC)cc(C2=C3C(C)=C(I)C(/C=C/c4cccs4)=[N+]3[B-](F)(F)n3c(/C=C/c4cccs4)c(I)c(C)c32)c1 | DMSO |  |  |  |  | 675 nm |
| CCCCN1C(=O)c2cccc3c(NCCCCCCN4CCOCC4)ccc(c23)C1=O | toluene |  |  |  |  | 426 nm |
| CCn1cc(/C=C/c2sc3ccccc3[n+]2CC)c2ccccc21 | PBS | 10 µM |  |  |  | 464 nm |
| COc1cc(OC)cc(C2=C3C(C)=C(I)C(C)=[N+]3[B-](F)(F)n3c(/C=C/c4c[nH]c5ccc([N+](=O)[O-])cc45)c(I)c(C)c32)c1 | THF |  |  |  |  | 612 nm |
| CCCCN1C(=O)c2cccc3c(NCCCCCN4CCOCC4)ccc(c23)C1=O | aqueous medium |  | pH 6 |  |  | 452 nm |
| CC1=CC(C)=[N+]2C1=C(CCCC(=O)NCCCCCC(=O)NCCCC[C@H](NC(=O)N[C@@H](CCC(=O)O)C(=O)O)C(=O)O)c1c(C)cc(C)n1[B-]2(F)F | acetonitrile/water |  |  |  |  | 496 nm |
| COc1cc(OC)cc(C2=C3C(C)=C(I)C(C)=[N+]3[B-](F)(F)n3c(/C=C/c4c[nH]c5ccccc45)c(I)c(C)c32)c1 | THF |  |  |  |  | 627 nm |
| COC(=O)c1ccccc1-c1c2ccc(=N)cc-2oc2c1ccc1cccc(OC)c12 | phosphate buffer | 10 to 15 µM | pH 7.4 |  | 10% DMSO | 538 nm |
